{"data": "Literature values that unrelated publications cite", "DRD3": "D(3) dopamine receptor (DRD3, Homo sapiens, UniProt P35462)", "OfChi-h": "Chitinase (OfChi-h, Ostrinia furnacalis, UniProt Q4AE59)", "note": "Compare with care: the assays were run in different laboratories. ± gives the spread as reported.", "UniProt P35462, sequence (whole entry, looked up)": "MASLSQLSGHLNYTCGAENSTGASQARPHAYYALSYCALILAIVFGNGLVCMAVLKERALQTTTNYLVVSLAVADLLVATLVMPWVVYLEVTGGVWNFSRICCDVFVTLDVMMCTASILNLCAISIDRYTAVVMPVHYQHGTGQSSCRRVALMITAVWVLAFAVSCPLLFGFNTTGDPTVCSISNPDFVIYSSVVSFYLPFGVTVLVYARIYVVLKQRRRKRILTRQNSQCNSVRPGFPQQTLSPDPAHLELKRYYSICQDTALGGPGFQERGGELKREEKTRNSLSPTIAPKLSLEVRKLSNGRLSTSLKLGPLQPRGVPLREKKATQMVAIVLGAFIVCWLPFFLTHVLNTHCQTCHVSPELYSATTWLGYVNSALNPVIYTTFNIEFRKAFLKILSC", "UniProt P21397, sequence (whole entry, looked up)": "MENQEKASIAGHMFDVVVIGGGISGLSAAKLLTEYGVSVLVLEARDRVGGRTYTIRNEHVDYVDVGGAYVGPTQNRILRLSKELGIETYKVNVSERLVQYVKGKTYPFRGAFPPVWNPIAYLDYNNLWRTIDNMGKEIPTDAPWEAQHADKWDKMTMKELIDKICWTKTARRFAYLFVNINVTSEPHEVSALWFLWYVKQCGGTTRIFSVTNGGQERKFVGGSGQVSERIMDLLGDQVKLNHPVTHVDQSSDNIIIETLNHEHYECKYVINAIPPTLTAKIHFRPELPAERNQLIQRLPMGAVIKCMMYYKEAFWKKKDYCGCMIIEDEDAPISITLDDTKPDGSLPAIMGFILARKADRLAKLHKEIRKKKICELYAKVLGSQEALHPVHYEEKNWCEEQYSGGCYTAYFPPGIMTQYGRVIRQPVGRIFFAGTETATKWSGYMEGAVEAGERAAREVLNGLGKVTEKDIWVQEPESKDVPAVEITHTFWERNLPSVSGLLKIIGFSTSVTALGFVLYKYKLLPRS"}
{"SMILES": "CCC(=O)Nc1ccc(C(=O)C=C(O)C(F)(F)C(F)(F)F)cn1", "target or system": "Plasmodium falciparum formate-nitrite transporter", "test": "binding, FCCS", "test system": "isolated protein", "endpoint": "Ki", "value": "0.027 ± 0.004 µM"}
{"SMILES": "O=c1[nH]cnc2c(CNC(CO)COP(=O)(O)O)c[nH]c12 (racemic)", "target or system": "human HGPRT", "test": "inhibitor", "endpoint": "Ki", "value": "> 10 µM"}
{"SMILES": "NS(=O)(=O)c1nnc(NC(=O)CCC2CCCCC2)s1", "target or system": "Enterococcus faecalis gamma-carbonic anhydrase", "test": "enzyme activity, inhibitor", "endpoint": "Ki", "value": "0.346 µM"}
{"SMILES": "O=C(C=C(O)C(F)(F)C(F)(F)F)c1cccnc1", "target or system": "Plasmodium falciparum formate-nitrite transporter", "test": "binding, FCCS", "test system": "isolated protein", "endpoint": "Ki", "value": "0.035 ± 0.01 µM"}
{"SMILES": "COc1ccccc1N1CCN(CCCCNC(=O)c2ccc3[nH]c(=O)sc3c2)CC1", "target or system": "DRD3", "test": "binding", "endpoint": "Ki", "value": "0.00028 µM"}
{"SMILES": "O=C(C=C(O)C(F)(F)C(F)(F)C(F)(F)F)c1cccnc1", "target or system": "Plasmodium falciparum formate-nitrite transporter", "test": "binding, FCCS", "test system": "isolated protein", "endpoint": "Ki", "value": "0.03 ± 0.003 µM"}
{"SMILES": "Nc1nc2c(CN[C@H](CO)CCP(=O)(O)O)c[nH]c2c(=O)[nH]1", "target or system": "human HGPRT", "test": "inhibitor", "endpoint": "Ki", "value": "0.02 ± 0.0003 µM"}
{"SMILES": "COc1cc2ncnc(Oc3ccc(N)cc3F)c2cc1OC", "target or system": "WDR5", "endpoint": "Ki", "value": "61 µM"}
{"SMILES": "Cc1cc2c(c(O)c1O)C(=O)c1c(O)cc(O)cc1C2=O", "target or system": "MAOA (Homo sapiens, UniProt P21397)", "endpoint": "Ki", "value": "3.97 µM"}
{"SMILES": "O=c1[nH]cnc2c(CNCC(O)CP(=O)(O)O)c[nH]c12 (racemic)", "target or system": "human HGPRT", "test": "inhibitor", "endpoint": "Ki", "value": "> 10 µM"}
{"SMILES": "N[C@H]1C[C@@H](C(=O)O)CC1=C(Cl)Cl", "target or system": "GABA aminotransferase, pig", "test": "reversible inhibitor", "conditions": "added: GABA substrate", "endpoint": "Ki", "value": "> 10000 µM"}
{"SMILES": "CCCNc1ccc(C(=O)C=C(O)C(F)(F)C(F)(F)F)cn1", "target or system": "Plasmodium falciparum formate-nitrite transporter PfFNT", "test": "binding, affinity-isolated protein", "endpoint": "Ki", "value": "0.022 µM"}
{"SMILES": "COc1ccc(Nc2nc(Nc3ccc(OCC[18F])cc3)ncc2Br)cc1", "test system": "S180 tumour-bearing mice, bone", "conditions": "intravenous, 120 min", "endpoint": "tissue uptake", "value": "4.71 ± 0.53 %ID/g"}
{"SMILES": "O=c1c(-c2cccc(F)c2)c[nH]c2ccnc(Cl)c12", "target or system": "WDR5", "endpoint": "Ki", "value": "2.6 µM"}
{"SMILES": "O=C(C=C(O)C(F)(F)C(F)(F)F)c1ccc(NC(=O)c2ccccc2)nc1", "target or system": "Plasmodium falciparum formate-nitrite transporter", "test": "binding, FCCS", "test system": "isolated protein", "endpoint": "Ki", "value": "0.016 ± 0.002 µM"}
{"SMILES": "CN(Cc1c[nH]c2c(=O)[nH]cnc12)[C@H](CO)CCP(=O)(O)O", "target or system": "human HGPRT", "test": "inhibitor", "endpoint": "Ki", "value": "4.6 ± 0.07 µM"}
{"SMILES": "CC(C)(C)Nc1ccc(C(=O)C=C(O)C(F)(F)C(F)(F)F)cn1", "target or system": "Plasmodium falciparum formate-nitrite transporter", "test": "binding, FCCS", "test system": "isolated protein", "endpoint": "Ki", "value": "0.239 ± 0.101 µM"}
{"SMILES": "O=c1c(-c2ccccc2F)c[nH]c2ccnc(Cl)c12", "target or system": "WDR5", "endpoint": "Ki", "value": "0.665 µM"}
{"SMILES": "Nc1cccc(-c2ccc3c(=O)[nH]c(Nc4ccccc4)cc3c2)c1", "target or system": "CDC25B", "test": "reversible competitive inhibitor", "endpoint": "Ki", "value": "1.9 µM"}
{"SMILES": "O=C(C=C(O)C(F)(F)C(F)(F)F)c1ccco1", "target or system": "Plasmodium falciparum formate-nitrite transporter", "test": "binding, FCCS", "test system": "isolated protein", "endpoint": "Ki", "value": "0.037 ± 0.005 µM"}
{"SMILES": "OCC1OC(n2cnc3c(NCc4ccc(Br)s4)ncnc32)C(O)C1O (centres unmarked)", "target or system": "ENT1 (rat)", "test": "binding", "test system": "PC-12", "endpoint": "Ki", "value": "0.068 µM"}
{"SMILES": "Cn1c(SCCCN2CCOC(c3ccc(C(F)(F)F)cc3)C2)nnc1-c1ccc(-c2cnco2)cc1 (centres unmarked)", "target or system": "DRD3", "test": "binding", "endpoint": "Ki", "value": "0.0049 µM"}
{"SMILES": "O=c1[nH]cnc2c(CN[C@H](CO)CCP(=O)(O)O)c[nH]c12", "target or system": "human HGPRT", "test": "inhibitor", "endpoint": "Ki", "value": "0.4 ± 0.04 µM"}
{"SMILES": "O[C@@H]1Cc2cccc(OCCF)c2C[C@H]1N1CCC(c2ccccc2)CC1", "target or system": "rat sigma-1 receptor", "test": "binding", "endpoint": "Ki", "value": "0.209 ± 0.094 µM"}
{"SMILES": "Cn1cc2c3c(c[nH]c(=O)c31)CN(c1ccccn1)c1ccc(CS(C)(=O)=O)cc1-2", "target or system": "Bromodomain-containing protein 4, BD2 (BRD4, Homo sapiens, UniProt O60885)", "test": "binding", "conditions": "bromodomain 2", "endpoint": "Ki", "value": "0.0021 µM"}
{"SMILES": "Nc1nc2c([C@@H]3N[C@H](COP(=O)(O)O)[C@@H](O)[C@H]3O)c[nH]c2c(=O)[nH]1", "target or system": "human HGPRT", "test": "inhibitor", "endpoint": "Ki", "value": "0.0046 ± 0.001 µM"}
{"SMILES": "CCn1nc(C2CC2)cc1Nc1nc(C(=O)NC)nc2[nH]c3cc(-c4c(C)noc4C)c(OC)cc3c12", "target or system": "Bromodomain-containing protein 4, BD1 (BRD4, Homo sapiens, UniProt O60885)", "test": "binding", "conditions": "bromodomain 1", "endpoint": "Ki", "value": "0.0005 ± 0.0002 µM"}
{"SMILES": "COc1ccccc1N1CCC2(CCN(CCCSc3nnc(-c4ccccc4)n3C)CC2)CC1", "target or system": "DRD3", "test": "binding", "endpoint": "Ki", "value": "0.012 µM"}
{"SMILES": "CON1C(=O)C(=CC=Cc2ccc3c(c2)OCO3)SC1=S", "target or system": "OfChi-h", "endpoint": "Ki", "value": "0.49 µM"}
{"SMILES": "CCc1c(Cl)cccc1N1CCN(C[C@H](F)CCNC(=O)c2cc3ccccc3[nH]2)CC1", "target or system": "dopamine D2 receptor", "test": "binding", "endpoint": "Ki", "value": "0.0802 ± 0.0138 µM"}
{"SMILES": "O=C(C=C(O)C(F)(F)C(F)(F)F)c1ccc(NCc2ccc(F)cc2)nc1", "target or system": "Plasmodium falciparum formate-nitrite transporter", "test": "binding, FCCS", "test system": "isolated protein", "endpoint": "Ki", "value": "0.016 ± 0.003 µM"}
{"SMILES": "O=C1CS/C(=N\\N=C\\c2cccc3ccccc23)N1CCOc1ccccc1", "target or system": "OfChi-h", "endpoint": "Ki", "value": "4.1 µM"}
